{"data": "Measured values pooled from the literature", "cell line": "BV-2", "mode": "inhibitor", "notes": "LPS-stimulated", "note": "Lines come from different studies, so protocols differ."}
{"Structure (SMILES)": "C#CCOc1ccc(/C=C/C(=O)N2CCc3ccccc3C2)cc1OC", "observed": "NO release", "method": "Griess", "tested at": "10 µM", "quantity": "inhibition", "value": "57.3%"}
{"Structure (SMILES)": "COc1cc(O)c2c(=O)c(O)c(-c3ccc(O)c(O)c3)oc2c1", "observed": "NO release", "method": "Griess", "quantity": "IC50", "value": "26.3 µM"}
{"Structure (SMILES)": "COc1cc(/C=C/C(=O)N2CCc3ccccc3C2)ccc1OC1CCCCC1", "observed": "NO release", "method": "Griess", "tested at": "5 µM", "quantity": "inhibition", "value": "40.4%"}
{"Structure (SMILES)": "COc1cc(O)cc2c1-c1c(O)cccc1CC2", "observed": "NO release", "method": "Griess", "quantity": "IC50", "value": "> 20 µM"}
{"Structure (SMILES)": "C[C@@H]1C[C@H]2[C@@H]3CCC4=CC(=O)C=C[C@]4(C)[C@@]3(F)[C@@H](O)C[C@]2(C)[C@@]1(O)C(=O)CO", "observed": "NO release", "method": "Griess", "time": "24 h", "quantity": "IC50", "value": "< 0.2 µM"}
{"Structure (SMILES)": "COc1cc(/C=C/C(=O)NCCc2ccc(O)cc2)ccc1O", "observed": "NO release", "method": "Griess", "quantity": "IC50", "value": "> 20 µM"}
{"Structure (SMILES)": "COc1cc(O)c2c(c1)O[C@H](c1ccc(O)cc1)CC2=O", "observed": "TNF-α release", "method": "ELISA", "quantity": "IC50", "value": "158 µM"}
{"Structure (SMILES)": "COc1ccc2c(c1O)CCc1cc(O)cc(OC)c1-2", "observed": "NO release", "method": "Griess", "quantity": "IC50", "value": "> 20 µM"}
{"Structure (SMILES)": "COc1ccc(/C=C/C(=O)N2CCc3ccccc3C2)cc1OC", "observed": "NO release", "method": "Griess", "tested at": "10 µM", "quantity": "inhibition", "value": "62.5%"}
